Measured values collected from several papers.
Parts stem from different laboratories: compare values within a part only. Values joined by “and” are separate records of one study, mostly repeats; a detail may differ.
Chain of UniProt P00519 (whole entry, unmodified, looked up): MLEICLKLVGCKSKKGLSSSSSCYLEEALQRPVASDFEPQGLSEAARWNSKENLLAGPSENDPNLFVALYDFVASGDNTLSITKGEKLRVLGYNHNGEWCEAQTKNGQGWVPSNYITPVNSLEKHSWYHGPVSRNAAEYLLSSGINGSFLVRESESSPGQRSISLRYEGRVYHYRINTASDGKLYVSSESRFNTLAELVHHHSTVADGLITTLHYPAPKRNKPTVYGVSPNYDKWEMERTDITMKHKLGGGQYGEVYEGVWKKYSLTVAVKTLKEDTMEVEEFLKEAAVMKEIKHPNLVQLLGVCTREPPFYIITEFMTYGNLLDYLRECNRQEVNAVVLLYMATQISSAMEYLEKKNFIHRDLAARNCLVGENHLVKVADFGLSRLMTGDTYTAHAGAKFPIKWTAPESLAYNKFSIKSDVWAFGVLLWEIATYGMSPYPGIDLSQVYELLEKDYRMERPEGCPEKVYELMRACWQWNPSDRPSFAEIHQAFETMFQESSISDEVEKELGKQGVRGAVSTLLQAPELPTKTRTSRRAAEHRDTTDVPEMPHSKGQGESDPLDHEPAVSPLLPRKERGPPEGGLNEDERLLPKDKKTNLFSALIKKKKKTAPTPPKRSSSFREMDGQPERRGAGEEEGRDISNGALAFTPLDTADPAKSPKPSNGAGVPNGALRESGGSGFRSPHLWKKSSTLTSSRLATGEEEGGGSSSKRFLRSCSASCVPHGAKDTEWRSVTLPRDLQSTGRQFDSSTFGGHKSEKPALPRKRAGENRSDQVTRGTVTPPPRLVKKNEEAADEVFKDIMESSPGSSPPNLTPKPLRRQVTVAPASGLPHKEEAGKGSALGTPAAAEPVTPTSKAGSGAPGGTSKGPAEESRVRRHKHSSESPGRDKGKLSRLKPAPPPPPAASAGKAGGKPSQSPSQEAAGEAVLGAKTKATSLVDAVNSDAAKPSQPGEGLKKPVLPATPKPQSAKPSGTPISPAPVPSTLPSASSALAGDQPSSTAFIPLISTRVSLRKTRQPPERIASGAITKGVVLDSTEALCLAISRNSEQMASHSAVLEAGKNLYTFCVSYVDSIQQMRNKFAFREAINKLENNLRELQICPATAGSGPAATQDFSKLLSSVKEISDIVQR
Chain of UniProt P49841 (whole entry, looked up): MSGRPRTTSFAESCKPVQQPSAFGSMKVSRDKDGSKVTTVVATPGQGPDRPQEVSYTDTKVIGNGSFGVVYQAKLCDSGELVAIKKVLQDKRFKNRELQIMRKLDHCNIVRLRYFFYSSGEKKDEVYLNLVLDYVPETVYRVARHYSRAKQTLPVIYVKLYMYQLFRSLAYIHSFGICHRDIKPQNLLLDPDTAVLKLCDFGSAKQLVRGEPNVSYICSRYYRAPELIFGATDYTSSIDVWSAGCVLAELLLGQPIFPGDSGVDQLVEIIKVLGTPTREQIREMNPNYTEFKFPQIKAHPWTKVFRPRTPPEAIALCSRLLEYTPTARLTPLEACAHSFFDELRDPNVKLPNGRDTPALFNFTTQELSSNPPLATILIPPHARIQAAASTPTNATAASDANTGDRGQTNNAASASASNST
Chain of UniProt Q9BYP7 (whole entry, looked up): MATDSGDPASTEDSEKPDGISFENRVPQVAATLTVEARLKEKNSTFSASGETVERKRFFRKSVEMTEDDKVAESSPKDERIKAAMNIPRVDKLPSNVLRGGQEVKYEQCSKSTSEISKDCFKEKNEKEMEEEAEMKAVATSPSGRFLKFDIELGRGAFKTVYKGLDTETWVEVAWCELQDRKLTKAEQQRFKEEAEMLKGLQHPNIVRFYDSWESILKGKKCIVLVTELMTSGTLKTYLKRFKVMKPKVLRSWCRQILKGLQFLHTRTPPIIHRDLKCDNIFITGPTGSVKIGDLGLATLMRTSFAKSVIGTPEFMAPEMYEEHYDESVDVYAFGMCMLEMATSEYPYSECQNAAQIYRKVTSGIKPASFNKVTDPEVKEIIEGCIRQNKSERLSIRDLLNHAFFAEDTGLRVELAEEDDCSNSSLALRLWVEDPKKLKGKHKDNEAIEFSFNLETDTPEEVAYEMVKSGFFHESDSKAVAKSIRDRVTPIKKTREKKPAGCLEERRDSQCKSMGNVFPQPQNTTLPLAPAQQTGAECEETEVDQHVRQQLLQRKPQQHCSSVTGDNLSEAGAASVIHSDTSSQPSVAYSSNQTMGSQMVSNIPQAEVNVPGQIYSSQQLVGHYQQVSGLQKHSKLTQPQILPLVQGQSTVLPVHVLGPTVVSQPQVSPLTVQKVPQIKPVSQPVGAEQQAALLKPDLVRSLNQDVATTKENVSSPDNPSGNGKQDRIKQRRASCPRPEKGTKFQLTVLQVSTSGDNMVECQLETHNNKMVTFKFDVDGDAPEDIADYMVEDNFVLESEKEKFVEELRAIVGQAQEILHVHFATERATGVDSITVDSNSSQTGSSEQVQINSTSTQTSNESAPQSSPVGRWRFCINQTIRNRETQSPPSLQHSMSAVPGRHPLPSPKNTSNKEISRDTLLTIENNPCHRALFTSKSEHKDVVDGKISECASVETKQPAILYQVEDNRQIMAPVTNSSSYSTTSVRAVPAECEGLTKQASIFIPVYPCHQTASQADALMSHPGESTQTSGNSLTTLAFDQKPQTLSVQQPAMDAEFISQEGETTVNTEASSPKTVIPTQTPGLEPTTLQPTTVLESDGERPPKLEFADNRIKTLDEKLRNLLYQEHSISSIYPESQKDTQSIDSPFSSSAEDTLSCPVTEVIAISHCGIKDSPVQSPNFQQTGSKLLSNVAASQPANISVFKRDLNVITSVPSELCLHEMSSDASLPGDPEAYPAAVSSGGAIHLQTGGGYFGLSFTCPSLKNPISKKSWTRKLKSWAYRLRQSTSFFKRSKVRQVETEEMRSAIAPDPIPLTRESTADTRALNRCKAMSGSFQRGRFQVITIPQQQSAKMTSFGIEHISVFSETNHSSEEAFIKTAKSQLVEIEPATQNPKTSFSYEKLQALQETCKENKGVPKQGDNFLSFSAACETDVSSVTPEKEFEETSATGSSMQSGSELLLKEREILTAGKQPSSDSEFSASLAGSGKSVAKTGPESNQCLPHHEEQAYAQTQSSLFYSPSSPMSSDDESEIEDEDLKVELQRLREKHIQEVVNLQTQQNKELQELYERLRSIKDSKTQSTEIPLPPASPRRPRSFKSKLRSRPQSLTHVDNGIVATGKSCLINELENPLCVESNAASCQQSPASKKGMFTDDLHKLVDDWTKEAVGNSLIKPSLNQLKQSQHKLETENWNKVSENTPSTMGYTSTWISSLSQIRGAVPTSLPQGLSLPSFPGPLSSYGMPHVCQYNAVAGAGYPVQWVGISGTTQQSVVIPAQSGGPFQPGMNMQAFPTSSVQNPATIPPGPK

Set 1
Compound: O=C(Nc1cnc(Oc2ccc(F)cc2)nc1)N1CCc2ncccc2[C@@H]1c1ccc(F)cc1
Tested at: 1 µM
| target | assay | remaining binding [%] |
| --- | --- | --- |
| SRC (Homo sapiens, UniProt P12931) | cell-free assay, competition with immobilised ligand | 93 |
| Non-receptor tyrosine-protein kinase TYK2, JH1 (TYK2, Homo sapiens, UniProt P29597) | cell-free assay, competition with immobilised ligand | 97 |
| EPHA8 (Homo sapiens, UniProt P29322) | cell-free assay, competition with immobilised ligand | 88 |
| AKT2 (Homo sapiens, UniProt P31751) | cell-free assay, competition with immobilised ligand | 100 |
| Tyrosine-protein kinase ABL1, non-phosphorylated (ABL1, Homo sapiens, UniProt P00519, F317L) | cell-free assay, competition with immobilised ligand | 81 |
| Aurora kinase C (AURKC, Homo sapiens, UniProt Q9UQB9) | cell-free assay, competition with immobilised ligand | 81 |
| MET (Homo sapiens, UniProt P08581, Y1235D) | cell-free assay, competition with immobilised ligand | 93 |
| MAP3K6 (Homo sapiens, UniProt O95382) | cell-free assay, competition with immobilised ligand | 94 |
| MAP3K19 (Homo sapiens, UniProt Q56UN5) | cell-free assay, competition with immobilised ligand | 81 |
| CDK19 (Homo sapiens, UniProt Q9BWU1) | competition binding | 75 |
| WEE1 (Homo sapiens, UniProt P30291) | cell-free assay, competition with immobilised ligand | 85 |
| CDC42BPB (Homo sapiens, UniProt Q9Y5S2) | cell-free assay, competition with immobilised ligand | 73 |
| CSNK2A2 (Homo sapiens, UniProt P19784) | cell-free assay, competition with immobilised ligand | 100 |
| PIK3CA (Homo sapiens, UniProt P42336, E542K) | cell-free assay, competition with immobilised ligand | 81 |
| GSK3B (Homo sapiens, UniProt P49841) | cell-free assay, competition with immobilised ligand | 100 |
| CSNK1A1L (Homo sapiens, UniProt Q8N752) | cell-free assay, competition with immobilised ligand | 82 |
| PRKD3 (Homo sapiens, UniProt O94806) | cell-free assay, competition with immobilised ligand | 84 |
| EGFR (Homo sapiens, UniProt P00533, del747-750/T751S) | cell-free assay, competition with immobilised ligand | 100 |
| WNK3 (Homo sapiens, UniProt Q9BYP7) | cell-free assay, competition with immobilised ligand | 93 |
| LIM domain kinase 2 (LIMK2, Homo sapiens, UniProt P53671) | cell-free assay, competition with immobilised ligand | 97 |

Set 2
SMILES: C=CCc1ccc(O)c(-c2cc(CC=C)ccc2O)c1
ANO1 del476-501/R541A: Anoctamin-1 (ANO1, Homo sapiens, UniProt Q5XXA6, del476-501/R541A)
Chain of UniProt Q5XXA6 (whole entry, unmodified, looked up): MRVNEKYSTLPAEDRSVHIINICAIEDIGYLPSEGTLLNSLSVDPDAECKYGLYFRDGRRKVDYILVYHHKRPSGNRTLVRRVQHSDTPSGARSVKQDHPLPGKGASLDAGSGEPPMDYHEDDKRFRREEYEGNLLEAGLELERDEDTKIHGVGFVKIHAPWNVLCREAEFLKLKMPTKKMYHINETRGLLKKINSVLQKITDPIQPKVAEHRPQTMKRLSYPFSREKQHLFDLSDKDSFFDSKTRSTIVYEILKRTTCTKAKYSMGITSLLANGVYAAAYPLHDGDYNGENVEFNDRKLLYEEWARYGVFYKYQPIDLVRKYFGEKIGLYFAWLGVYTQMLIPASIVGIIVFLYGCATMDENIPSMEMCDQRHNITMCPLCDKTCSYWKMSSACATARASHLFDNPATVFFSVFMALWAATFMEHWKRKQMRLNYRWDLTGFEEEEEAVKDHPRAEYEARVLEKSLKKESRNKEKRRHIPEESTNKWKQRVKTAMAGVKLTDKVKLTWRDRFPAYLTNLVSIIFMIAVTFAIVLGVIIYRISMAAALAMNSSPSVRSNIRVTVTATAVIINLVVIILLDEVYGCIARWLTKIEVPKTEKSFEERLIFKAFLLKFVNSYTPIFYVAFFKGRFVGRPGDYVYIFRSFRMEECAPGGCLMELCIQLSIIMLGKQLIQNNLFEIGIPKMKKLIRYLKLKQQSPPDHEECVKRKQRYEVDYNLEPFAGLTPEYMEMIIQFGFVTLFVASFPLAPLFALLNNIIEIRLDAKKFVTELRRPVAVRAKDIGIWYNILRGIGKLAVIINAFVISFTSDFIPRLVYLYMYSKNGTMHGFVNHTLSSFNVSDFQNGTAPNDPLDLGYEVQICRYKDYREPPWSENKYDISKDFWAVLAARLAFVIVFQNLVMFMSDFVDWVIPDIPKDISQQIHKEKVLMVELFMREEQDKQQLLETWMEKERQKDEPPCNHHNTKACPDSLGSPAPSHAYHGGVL
ANO1 del476-501/E649A: Anoctamin-1 (ANO1, Homo sapiens, UniProt Q5XXA6, del476-501/E649A)
| target | assay | setting | scale | normalized current |
| --- | --- | --- | --- | --- |
| ANO1 del476-501/R541A | chloride current, inside-out patch clamp | 30 µM, membrane voltage 100 mV | – | 0.752 |
| ANO1 del476-501/R541A | chloride current, inside-out patch clamp | 30 µM, membrane voltage -20 mV | – | -0.107 |
| ANO1 del476-501/E649A | ion current, inside-out patch clamp | 30 µM, E623A mutant at -60 mV | – | -0.374 |
| Anoctamin-1 (ANO1, Homo sapiens, UniProt Q5XXA6, del476-501/M544A) | chloride current, inhibitor, whole-cell voltage clamp | 3 µM, M518A mutant | relative to: untreated | 0.984 |
| Anoctamin-1 (ANO1, Homo sapiens, UniProt Q5XXA6, del476-501/K629A) | chloride current, inside-out patch clamp | 30 µM, membrane voltage 0 mV | – | 0.0008 |
| ANO1 del476-501/E649A | ion current, inside-out patch clamp | 30 µM, E623A mutant at 20 mV | – | 0.128 |
| ANO1 del476-501/E649A | chloride current, inhibitor, whole-cell voltage clamp | 100 µM, E623A mutant | – | 0.47 |
| Anoctamin-1 (ANO1, Homo sapiens, UniProt Q5XXA6, del476-501/E659A) | chloride current, inside-out patch clamp | 30 µM, membrane voltage -60 mV | – | -0.63 |

Set 3
Structure (SMILES): O=C1NC(=O)/C(=C/c2ccc3c(c2)OC(F)(F)O3)S1
Observed: enzyme activity
Mode: inhibitor
Tested at: 0.5 µM
Relative to: control
| target | remaining activity |
| --- | --- |
| EPHA4 (Homo sapiens, UniProt P54764) | 95.9% |
| TSSK2 (Homo sapiens, UniProt Q96PF2) | 101% |
| EPHB4 (Homo sapiens, UniProt P54760) | 100% |
| Cyclin-dependent kinase 6, with cyclin D3 (CDK6, Homo sapiens, UniProt Q00534) | 92.6% |
| RPS6KA5 (Homo sapiens, UniProt O75582) | 91.1% |
| ABL1 (Homo sapiens, UniProt P00519) | 98.5% |
| Cyclin-dependent kinase 4, with cyclin D3 (CDK4, Homo sapiens, UniProt P11802) | 98.2% |
| HIPK4 (Homo sapiens, UniProt Q8NE63) | 99.4% |

Set 4
Cell line: mouse MPNST tumor cells
Technique: high-content immunofluorescence imaging
Refers to: nuclear SOX9
Tested at: 10 µM
Time: 12 h
Setting: mean of 2 replicates
Relative to: DMSO control
Reading: higher = more nuclear SOX9
| Structure (SMILES) | nuclear SOX9 intensity |
| --- | --- |
| C=C(NC(=O)C(=C)NC(=O)c1csc(C2=N[C@@H]3c4csc(n4)[C@H]4NC(=O)c5csc(n5)[C@H]([C@](C)(O)[C@@H](C)O)NC(=O)[C@H]5CSC(=N5)/C(=C/C)NC(=O)[C@H]([C@@H](C)O)NC(=O)c5csc(n5)[C@]3(CC2)NC(=O)[C@H](C)NC(=O)C(=C)NC(=O)[C@H](C)NC(=O)[C@H]([C@@H](C)CC)N[C@@H]2C=Cc3c([C@H](C)O)cc(nc3[C@H]2O)C(=O)O[C@@H]4C)n1)C(N)=O | 147 % of DMSO |
| O=C(Nc1ccccc1)Nc1ccc(-c2ccc(C(=O)[C@@H]3CCC[C@H]3C(=O)O)cc2)cc1 | 101 % of DMSO |
| O=C1c2ccccc2S(=O)(=O)N1CCCCN1CCN(c2ncccn2)CC1 | 102 % of DMSO |
| CC(C)OC(=O)C(C)(C)Oc1ccc(C(=O)c2ccc(Cl)cc2)cc1 | 112 % of DMSO and 121 % of DMSO |
| C[C@@H]1C[C@H]2[C@@H]3CCC4=CC(=O)C=C[C@]4(C)[C@@]3(F)[C@@H](O)C[C@]2(C)[C@@]1(O)C(=O)CO | 72.4 % of DMSO |
| CCN[C@H]1C[C@H](C)S(=O)(=O)c2sc(S(N)(=O)=O)cc21 | 98.1 % of DMSO |
| CC(C)NNC(=O)c1ccncc1 | 102 % of DMSO |
| CCCCCCOc1nsnc1C1=CCCN(C)C1 | 107 % of DMSO |
| CCCCC1(COC(=O)CCC(=O)O)C(=O)N(c2ccccc2)N(c2ccccc2)C1=O | 105 % of DMSO |
